Measured values pooled from the literature.
Each line is one published result; not all experiments were run side by side. ± gives the spread as reported.

SMILES	assay	system	conditions	scale	measurement	value
CC[C@H](C)[C@H](NC(=O)[C@H](Cc1ccccc1)NC(=O)[C@H](CCC(=O)O)NC(=O)[C@H](CCCCNC(=O)COCCOCCNC(=O)COCCOCCNC(=O)CC[C@H](NC(=O)CCCCCCCCCCCCCCCCC(=O)O)C(=O)O)NC(=O)[C@H](C)NC(=O)[C@H](C)NC(=O)[C@H](CCC(N)=O)NC(=O)CNC(=O)[C@H](CCC(=O)O)NC(=O)[C@H](CC(C)C)NC(=O)[C@H](Cc1ccc(O)cc1)NC(=O)[C@H](CO)NC(=O)[C@H](CO)NC(=O)[C@@H](NC(=O)[C@H](CC(=O)O)NC(=O)[C@H](CO)NC(=O)[C@@H](NC(=O)[C@H](Cc1ccccc1)NC(=O)[C@@H](NC(=O)CNC(=O)[C@H](CCC(=O)O)NC(=O)C(C)(C)NC(=O)[C@@H](N)Cc1cnc[nH]1)[C@@H](C)O)[C@@H](C)O)C(C)C)C(=O)N[C@@H](C)C(=O)N[C@@H](Cc1c[nH]c2ccccc12)C(=O)N[C@@H](CC(C)C)C(=O)N[C@H](C(=O)N[C@@H](CCCNC(=N)N)C(=O)NCC(=O)N[C@@H](CCCNC(=N)N)C(=O)NCC(=O)O)C(C)C		Japanese subjects	subcutaneous once weekly, 0.5 mg, geometric mean	reference: steady state over single dose	dose-corrected accumulation ratio	1.99
Cc1c(C)c2c(c(C)c1O)CCC(C)(COc1ccc(CC3SC(=O)NC3=O)cc1)O2 (stereo not drawn)	parallel tube model	human	from oral clearance		intrinsic hepatic clearance	3830 L/h
Cc1nc2cccc(OCC(C)(C)C(=O)NC(C)C)c2c(N)c1C(=O)O		male Sprague-Dawley rat, plasma	oral gavage, 30 mg/kg, day 7		Cmax	74.5 ± 16.2 ng/mL
CC(C)Cc1ccc(C(C)C(=O)O)cc1 (stereo not drawn)	mitochondrial swelling	BALB/cByJ female mouse liver mitochondria	30 min, added: succinate + rotenone	reference: CaCl2 maximal swelling	EC20	> 200 µM
CCOc1ccc2c(c1)C(C)=CC(C)(C)N2	LC-MS/MS	laying hens, muscle	oral, 50 mg/kg feed, 56 days		residue concentration	9.2 ± 5.3 ng/g
COc1cc2ncnc(Nc3ccc(F)c(Cl)c3)c2cc1OCCCN1CCOCC1	mitochondrial swelling	BALB/cByJ female mouse liver mitochondria	30 min, added: succinate + rotenone	reference: CaCl2 maximal swelling	EC20	63.6 µM
C[C@]12CC[C@@H]3c4ccc(O)cc4CC[C@H]3[C@@H]1C[C@@H](O)[C@@H]2O	GC-MS	breast cancer women on NSAI, serum	vaginal, 0.03 mg daily, 8 h, day 28		minimum serum concentration	0 ng/mL
COc1cc2c(cc1OC)CN(CCc1ccc(NC(=O)c3cc(OC)c(OC)cc3NC(=O)c3cnc4ccccc4c3)cc1)CC2		human, plasma	intravenous infusion, 8 mg/kg		clearance	262 mL/min
S=C(NCCCc1c[nH]cn1)NCCCN(Cc1ccc(Cl)c(Cl)c1)c1ccc(Br)cn1		male C57BL/6 mouse, plasma	intraperitoneal, 30 mg/kg, 12 h		concentration	109 ng/mL
COc1cc(Nc2ncc3c(n2)-c2ccc(Cl)cc2C(c2c(F)cccc2OC)=NC3)ccc1C(=O)O		human, phase I	oral, 40 mg twice daily, added: combination with other drug		AUC(0-8h)	7670 ± 1510 ng·h/mL
COc1ccc(C=CC(=O)O)cc1OS(=O)(=O)O		human, fasted baseline, cerebrospinal fluid			median concentration	12.8 nM
COC(=O)C[C@](O)(CCCC(C)(C)O)C(=O)O[C@@H]1C(OC)=C[C@]23CCCN2CCc2cc4c(cc2[C@H]13)OCO4		CD1 mouse, bone marrow	subcutaneous, 1 mg/kg, 24 h, below quantification limit 1.00 ng/mL		tissue concentration	not detected
O=C(O)c1cc(O)c(O)c(O)c1	cytochrome c release, ELISA	BALB/cByJ female mouse liver mitochondria	30 min	reference: alamethicin maximal release	EC20	> 200 µM
O=C(c1cccnc1-c1ccncc1)N1CCC(O)(Cc2ccccc2)CC1		healthy human, plasma	oral, 100 mg once daily, day 1, arithmetic mean		AUCinf	451 ng·h/mL
COc1c(O)cc2oc3cc(O)cc(O)c3c(=O)c2c1C/C=C(\C)CCC=C(C)C	UHPLC, non-compartmental	mice, plasma	oral, 700 mg/kg, virgin coconut oil suspension		AUC(0-24 h)	561000 ± 78000 ng·h/mL
CC(=O)N[C@H](CSSC[C@H](N)C(=O)O)C(=O)N[C@H](C)C(=O)N[C@H](CCCNC(=N)N)C(=O)N[C@H](CCCNC(=N)N)C(=O)N[C@H](CCCNC(=N)N)C(=O)N[C@H](C)C(=O)N[C@H](CCCNC(=N)N)C(N)=O		human whole blood		reference: biotransformation over reverse	rate ratio	2.1 fold
COc1cccc(N2CCN(C3=Nc4c(F)cccc4[C@H](CC(=O)O)N3c3cc(C(F)(F)F)ccc3OC)CC2)c1	UHPLC-MS/MS	healthy women, plasma	intravenous infusion, 240 mg single dose, 30 min infusion, HPβCD formulation		clearance	133 ± 41.4 mL/min
COc1cccc(-c2ccc(NC(=O)C3=C(C(=O)O)CCC3)c(F)c2)c1		human, male, fasted, plasma	oral, 40 mg, single dose, geometric mean		AUC(0-24h)	94400 ng·h/mL
CCCC[C@@H]1NC(=O)[C@@H](NC(=O)[C@H](CCC(=O)O)NC(=O)CNC(=O)CN2CCN(CC(=O)O)CCN(CC(=O)O)CCN(CC(=O)O)CC2)CCCCNC(=O)C[C@@H](C(N)=O)NC(=O)[C@H](C(C)C)NC(=O)[C@@H]2CCCN2C(=O)[C@H](CCCNC(=N)N)NC(=O)CNC(=O)[C@H](Cc2c[nH]c3ccccc23)NC(=O)[C@H](CCCNC(=N)N)NC(=O)[C@@H](Cc2ccccc2)NC(=O)[C@H](Cc2c[nH]cn2)NC(=O)[C@H](CCC(=O)O)NC1=O [indium-111 labelled]		C57 mice, B16/F10 lung metastatic melanoma, bone	intravenous, 0.037 MBq, 4 h		tissue uptake	0.03 ± 0.03 %ID/g
O=C1CN(/N=C/c2ccc(-c3ccc([N+](=O)[O-])cc3)o2)C(O)=N1		Sprague-Dawley rat, male, blood	oral, 100 mg/kg, 24 h		ALP	decreased
CC[C@@H]1CN(C(=O)NCC(F)(F)F)C[C@@H]1c1cnc2cnc3[nH]ccc3n12	population pharmacokinetic model	human	added: CYP3A, CYP2D6 inhibitors, pH modifiers		pharmacokinetic parameters	no effect
CC(=O)N[C@@H](Cc1ccccc1)C(=O)N[C@H]1CCCNC(=O)[C@H](CCCNC(=N)N)NC(=O)[C@H](Cc2c[nH]c3ccccc23)NC(=O)[C@@H](CC2CCCCC2)NC(=O)[C@@H]2CCCN2C1=O		C57BL/6J mice, plasma	oral, 1 mg/kg		elimination half-life	0.27 h
Cn1cc(-c2ccc(S(=O)(=O)[C@@H]3C[C@@H](C(=O)NC4(C#N)CC4)N(C(=O)C4(C(F)(F)F)CC4)C3)c(C(F)(F)F)c2)cn1	population PK model	human, plasma	oral, 1 and 3 mg, fasted and fed estimates		absorption rate constant ka	2.95 h⁻¹

SMILES	assay	system	conditions	scale	measurement	value
CCCCC[C@H](O)CC[C@@H]1[C@H]2Cc3cccc(OCC(=O)O)c3C[C@H]2C[C@H]1O	LC-MS/MS	Japanese pulmonary arterial hypertension patients, plasma	inhalation, 54 µg four times daily, week 12		Clast	0.02 ± 0.02 ng/mL
CC[C@H](C)[C@H](NC(=O)[C@H](CCCNC(=N)N)NC(=O)[C@@H](NC(=O)[C@H](CO)NC(=O)[C@@H](NC(=O)[C@H](CCC(N)=O)NC(=O)[C@H](CS)NC(=O)[C@H](CCCCN)NC(=O)[C@@H](N)CCCNC(=N)N)[C@@H](C)CC)C(C)C)C(=O)N[C@@H](CCCNC(=N)N)C(=O)N[C@@H](CC(N)=O)C(=O)N[C@@H](CCCNC(=N)N)C(=O)N[C@@H](CCCNC(=N)N)C(=O)N[C@@H](C)C(=O)N[C@@H](CC(N)=O)C(=O)N[C@H](C(=O)N[C@@H](CCCCN)C(=O)N[C@H](C(=O)N[C@@H](CO)C(=O)N[C@@H](CS)C(=O)N[C@@H](CC(N)=O)C(=O)O)[C@@H](C)CC)[C@@H](C)CC	LC-MS	PBS	0.1 mg/mL		single disulfide form	66%
Cc1cc2nc3c(=O)[nH]c(=O)nc-3n(C[C@H](O)[C@H](O)[C@H](O)CO)c2cc1C	mitochondrial swelling	BALB/cByJ female mouse liver mitochondria	30 min, added: succinate + rotenone	reference: CaCl2 maximal swelling	EC20	672 µM
CS(=O)(=O)n1cc2c(n1)CN([C@H]1CO[C@H](c3cc(F)ccc3F)[C@@H](N)C1)C2		healthy Japanese men, plasma	oral, 1 mg once weekly, day 15		Ctrough	4.56 nM
Cc1cc(C)c2c(c1)[C@@H](N(Cc1cc(C(F)(F)F)cc(C(F)(F)F)c1)c1nnn(C)n1)CCCN2C[C@H]1CC[C@H](C(=O)O)CC1		human, dyslipidemic patients, plasma	oral, 30 mg daily, monotherapy, geometric mean		AUC(0-tau) at steady state	2300 ng·h/mL
CS(=O)(=O)n1cc2c(n1)CN([C@H]1CO[C@H](c3cc(F)ccc3F)[C@@H](N)C1)C2		healthy male human, plasma	oral, 50 mg, fasted, geometric mean		AUC(0-24h)	16.4 µM·h
[2H]C([2H])([2H])Oc1cc2c(cc1OC([2H])([2H])[2H])C1CC(=O)C(CC(C)C)CN1CC2 (stereo not drawn)	measured: deuterated total (α+β)-HTBZ	healthy human volunteers, plasma	oral, 12 mg single dose, standard meal		dose-normalized Cmax	2.6 ng/mL
CCc1oc2cc(OC)c(Br)cc2c1C(=O)c1cc(Br)c(O)c(Br)c1	metabolic stability	Sprague-Dawley rat, liver microsomes	1 µM, pH 7.4		microsomal CLint	24.8 µL/min/mg
O=c1[nH]c(=O)c(Cc2cccc(C(F)(F)F)c2)c([C@H]2CC[C@H](c3ccccc3)CC2)[nH]1		human, plasma	oral, 900 mg once daily, day 7, geometric mean		AUC(0-tau)	9750 ng·h/mL
Cn1c(=O)c2c(ncn2C)n(C)c1=O	cytochrome c release, ELISA	BALB/cByJ female mouse liver mitochondria	30 min	reference: alamethicin maximal release	EC20	> 400 µM
Cc1ccc2c(c1)nc(/C=C/c1cccc3cccnc13)n2-c1cccc(OCCCN2CCN(C)CC2)c1		Sprague-Dawley rat, male, plasma	oral, 2.5 mg/kg, 10 h		plasma concentration	~84 nM
CCCC[C@H](NC(C)=O)C(=O)N[C@H]1CCC(=O)NC[C@@H](C(=O)N[C@@H](Cc2c[nH]c3ccccc23)C(N)=O)NC(=O)[C@H](CCCNC(=N)N)NC(=O)[C@@H](Cc2ccccc2)NC(=O)[C@H](Cc2c[nH]cn2)NC1=O		beagle dog, female, plasma	subcutaneous, 8.0 mg/kg daily, day 28		Cmax	389 ng/mL
Cn1c(-c2ccc(C(N)=O)cc2F)nnc1C(C)(C)Oc1c(F)cc(Cl)cc1F		young non-Japanese humans, plasma	oral, 2 mg once daily, last day of 14 days		mean half-life	86.2 h
CC(C)(O)CNc1nc(Nc2ccnc(C(F)(F)F)c2)nc(-c2cccc(C(F)(F)F)n2)n1		human patients	oral, 100 mg once daily, cycle 1 days 1 and 8, added: induction chemotherapy		mean Cmax	1410 ng/mL
Cc1cc(Nc2ccc(C(=O)N/N=C/c3scnc3C)cc2)c2cccc(O)c2n1		female Sprague-Dawley rat, plasma	oral, 20 mg/kg		bioavailability	~6.91%
Cc1cn(-c2cc(NC(=O)c3ccc(C)c(Nc4nccc(-c5cccnc5)n4)c3)cc(C(F)(F)F)c2)cn1	cytochrome c release, ELISA	BALB/cByJ female mouse liver mitochondria	30 min	reference: alamethicin maximal release	EC20	> 400 µM
Cn1c(Cn2ccc(C(F)(F)F)c(Oc3cc(Cl)cc(C#N)c3)c2=O)n[nH]c1=O		human, plasma	oral, 100 mg once daily, 24 h, geometric mean, added: islatravir 2.25 mg once daily		concentration at 24 h	866 nM
COc1cc2c(cc1OC)CN(CCc1ccc(NC(=O)c3cc(OC)c(OC)cc3NC(=O)c3cnc4ccccc4c3)cc1)CC2		Wistar Unilever rat	intravenous, 5 mg/kg, 3 h		brain concentration	1580 ng/mL
Cc1cccc(Nc2ccccc2C(=O)O)c1C	mitochondrial swelling	BALB/cByJ female mouse liver mitochondria	30 min, added: succinate + rotenone	reference: CaCl2 maximal swelling	EC20	> 400 µM
CC(C)[C@H](NC(=O)[C@@H]1CCCN1C(=O)[C@H](CCCNC(=N)N)NC(=O)[C@H](CS)NC(=O)[C@H](Cc1c[nH]c2ccccc12)NC(=O)[C@H](CCCNC(=N)N)NC(=O)[C@@H](Cc1ccccc1)NC(=O)[C@H](Cc1c[nH]cn1)NC(=O)[C@H](CCC(=O)O)NC(=O)[C@H](CS)NC(=O)[C@H](CS)NC(=O)[C@H](CCCCN)NC(=O)[C@@H]1CC(=O)N[C@@H](CCCNC(=N)N)C(=O)N[C@@H](C(C)C)C(=O)N[C@@H](CC(=O)O)C(=O)N[C@H](Cc2ccc(O)cc2)C(=O)N1)C(N)=O [technetium-99m labelled]		C57 mouse, female, B16/F1 melanoma	intravenous, 2 h, added: NDP-MSH 10 µg co-injected	reference: tumour over liver	uptake ratio	1.14
NCCS(=O)(=O)O	cytochrome c release, ELISA	BALB/cByJ female mouse liver mitochondria	30 min	reference: alamethicin maximal release	EC20	> 800 µM
CN(c1ccccc1)c1nccc(-c2cnn3ncccc23)n1		rat liver microsomes			intrinsic clearance	340 µL/min/mg
